# Measured values from different studies.
# Compare with care: the assays were run in different laboratories. ± marks the error that the study gave. No end group written: not given here.
# Sequence of UniProt O60656 (whole entry, looked up): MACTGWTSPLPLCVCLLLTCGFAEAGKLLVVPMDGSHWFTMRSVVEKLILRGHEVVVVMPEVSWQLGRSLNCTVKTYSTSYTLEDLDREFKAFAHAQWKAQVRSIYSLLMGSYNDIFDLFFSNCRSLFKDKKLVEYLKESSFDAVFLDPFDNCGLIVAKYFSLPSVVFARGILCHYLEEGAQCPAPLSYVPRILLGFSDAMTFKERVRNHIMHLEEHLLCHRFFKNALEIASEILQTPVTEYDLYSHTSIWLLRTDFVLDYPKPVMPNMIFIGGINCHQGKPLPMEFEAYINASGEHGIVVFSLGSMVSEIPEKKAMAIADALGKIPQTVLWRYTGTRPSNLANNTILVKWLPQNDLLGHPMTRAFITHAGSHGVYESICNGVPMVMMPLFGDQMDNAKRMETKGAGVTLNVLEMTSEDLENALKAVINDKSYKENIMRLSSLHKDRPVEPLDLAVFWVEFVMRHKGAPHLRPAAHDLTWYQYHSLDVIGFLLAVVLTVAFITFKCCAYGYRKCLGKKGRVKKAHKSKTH
Molecule,target or system,test,system,setting,scale,endpoint,result
insulin lispro,,"radioimmunoassay, refers to: insulin","type 1 diabetes patients, serum","subcutaneous, dose not given",,Tmax,49 min
COc1cccc2c1C(=O)c1c(O)c3c(c(O)c1C2=O)C[C@@](O)(C(=O)CO)C[C@@H]3O[C@H]1C[C@H](NC(=O)[C@@H]2CCCN2C(=O)CN)[C@H](O)[C@H](C)O1,,,"mouse, E0771 tumour-bearing, kidney","intravenous, 92 µmol/kg PhAc-ALGP-Dox",,AUC,288 µM·h
insulin icodec,,,"human type 2 diabetes, serum","subcutaneous, 175 U, 840 h, added: 0.5 mg semaglutide",,AUC(0-t),20.3 µM·h
insulin degludec,,ELISA,"human severe renal impairment, serum","dose not given, single dose",relative to: impaired over normal renal function,AUC(0-inf) ratio,1.19
AFTCHCRRSCYSTEYSYGTCTVMGINHRACCL (disulfide (positions not given here); ends not checked; sequence looked up),,analytical ultracentrifugation,"peptide, 10 mM sodium phosphate","40 to 160 µM, pH 7.4, 20 °C",,"sedimentation coefficient s20,w",~1.2 S
amyloid-β(1-40),,,self-aggregation,without clusterin,,ΔG° of larger oligomer formation,-9.39 ± 0.717 kcal/mol
CC(C)[C@H](NC(=O)[C@@H]1CCCN1C(=O)[C@H](CCCNC(=N)N)NC(=O)[C@H](CS)NC(=O)[C@H](Cc1c[nH]c2ccccc12)NC(=O)[C@H](CCCNC(=N)N)NC(=O)[C@@H](Cc1ccccc1)NC(=O)[C@H](Cc1c[nH]cn1)NC(=O)[C@H](CCC(=O)O)NC(=O)[C@H](CS)NC(=O)[C@H](CS)NC(=O)[C@H](CCCCN)NC(=O)[C@@H]1CC(=O)N[C@@H](CCCNC(=N)N)C(=O)N[C@@H](C)C(=O)N[C@@H](CC(=O)O)C(=O)N[C@H](Cc2ccc(O)cc2)C(=O)N1)C(N)=O [technetium-99m labelled],,,"C57 mice, spleen","intravenous, 0.037 MBq, 4 h",,tissue uptake,0.37 ± 0.26 %ID/g
oxytocin-d5,,,"rhesus monkey, CSF over plasma","intranasal vs intravenous, 80 IU, 0-60 min",,drug targeting efficiency,111%
"UGT1A9 (Homo sapiens, UniProt O60656)",O=c1cc(-c2ccc(O)cc2)oc2cc(O)cc(O)c12,steady-state kinetics,,"pH 7.4, 37 °C",,Km,1.93 µM
